Measurements collected from several papers.
Protocols differ between the studies behind these lines. ± marks the error that the study gave. Converted amounts (≈) assume the structure as drawn.

Structure (SMILES)	assay	system	setting	how to read	quantity	value
CCCC[C@@H]1NC(=O)[C@H](CCC(=O)O)NC(=O)[C@H](CCCNC(=N)N)NC(=O)[C@H](CCC(N)=O)NC(=O)[C@](C)(NC(=O)[C@H](CC(C)C)NC(=O)[C@H](CS)NC(=O)[C@H](CCC(N)=O)NC(=O)[C@H](C)NC(=O)[C@H](CCCNC(=N)N)NC(=O)CNC(=O)[C@H](CCCCN)NC(=O)[C@H](CCC(=O)O)NC(=O)[C@H](CC(=O)O)NC(=O)[C@H](CC(C)C)NC(=O)[C@H](CC(C)C)NC(C)=O)CCCCCCC=CCCC[C@@](C)(C(=O)N[C@@H](CC(C)C)C(=O)N[C@@H](CCC(=O)O)C(=O)N[C@@H](CCC(N)=O)C(=O)N[C@@H](CCC(N)=O)C(=O)N[C@@H](CC(C)C)C(=O)N[C@H](C(=O)N[C@@H](CC(C)C)C(=O)N[C@@H](CCC(=O)O)C(=O)N[C@@H](CCCCN)C(=O)N[C@@H](CCC(=O)O)C(=O)N[C@@H](CCCCN)C(N)=O)C(C)C)NC(=O)[C@H](CCC(N)=O)NC(=O)[C@H](C(C)C)NC1=O	circular dichroism	sodium acetate buffer	2.5 to 10 µM, pH 3.6, 20 °C	–	alpha-helicity	10%
Cc1ccc(OCC(=O)N(Cc2cccs2)c2ccn[nH]2)cc1	–	Sprague-Dawley rat, female, plasma	oral gavage, 100 mg/kg	–	dose-normalised AUC(0-last)	1.57 ng·h/mL/mg/kg
CC(C)[C@H](NC(=O)CNC(=O)[C@H](CCC(N)=O)NC(=O)[C@H](C)N)C(=O)O	–	human	1 mg/kg single dose, LOQ 0.5 ng/mL	–	time to concentration below LOQ	15 min
Cc1ccc(C(=O)N[C@@H](CO)CC(C)C)cc1C	LC-MS	human liver microsomes	10 µM of parent drug, 10 min, pH 7.4, together with: NADPH	relative to: parent drug at time zero	metabolite peak area	0.5%
CC[C@H](C)[C@@H]1NC(=O)[C@H](CCCNC(=N)N)NC(=O)[C@H](CC(=O)O)NC(=O)[C@H](CC(C)C)NC(=O)[C@H](CCCCN)NC(=O)[C@H](CC(C)C)NC(=O)CNC(=O)[C@H](Cc2ccccc2)NC(=O)[C@@H](NC(=O)CNC(=O)[C@H](CCCCN)NC(=O)[C@H](CO)NC(=O)[C@H](CC(C)C)NC(=O)CNC(=O)[C@H](CCCCN)NC(=O)[C@H](CCCCN)NC(=O)[C@H](CC(N)=O)NC(=O)[C@H](C)NC(=O)CNC(=O)[C@H](CCCCN)NC(=O)[C@H](Cc2ccc(O)cc2)NC(=O)[C@H](CCCCN)NC(=O)[C@H](CCCNC(=N)N)NC(=O)[C@H](C)NC(=O)[C@H](CC(N)=O)NC(=O)[C@@H]2CCCN2C(=O)[C@H](Cc2c[nH]cn2)NC(=O)[C@H](CCC(=O)O)NC(=O)[C@H](CCC(N)=O)NC(=O)[C@@H](N)CC(C)C)CSSC[C@@H](C(=O)O)NC(=O)CNC(=O)[C@H](CC(C)C)NC(=O)CNC(=O)[C@H](CO)NC(=O)[C@H](CCSC)NC(=O)[C@H](CO)NC(=O)CNC1=O	–	healthy adult men, plasma	subcutaneous, released from prodrug, single dose, together with: TransCon CNP prodrug	–	apparent half-life	~120 h
Cc1nc(-c2ccc(NC(=O)c3cccs3)cc2Cl)no1	–	PBS	24 h, pH 7.4, room temperature	–	thermodynamic solubility	56.6 ± 9.5 µg/mL (≈ 177 µM)
Cn1c(=O)oc2ccc(-c3ccc(CC(C#N)NC(=O)C4CNCCCO4)c(F)c3)cc21 (centres unmarked)	item: blood creatine phosphokinase increased	human volunteers	oral, dose not given	–	treatment-emergent adverse event incidence	3.7%
C#CCOc1ccc(/C=C2\SC(=O)N(CC(=O)NCc3ccccc3)C2=O)cc1	inverse Kirkwood-Buff integrals	binary solvent mixture	concentration not given, 298.15 K, mole fraction x1 0.90	–	correlation volume	5800 cm³/mol
CN1CCC[C@]1(C)/C=C/S(=O)(=O)NC(=O)Nc1c2c(cc3c1CCC3)CCC2	–	human, plasma	oral, 12.5 mg twice daily, day 14, multiple ascending dose	–	AUC(0-24)	23500 ng·h/mL
[11CH3]c1ccc2nc(C3CCC3)n(-c3ccc4[nH]ncc4c3)c2n1	–	human male, thyroid	–	–	absorbed radiation dose	2.1 µSv/MBq
Cc1ccc(/N=N/c2c(O)ccc3ccccc23)c(C)c1	–	Sprague-Dawley rats both sexes, whole blood	oral, 50 mg/kg	–	elimination half-life	109 min
CC1C(c2c(F)ccc(F)c2F)CC(N[14C](=O)c2cnc3c(c2)CC2(C3)C(=O)Nc3ncccc32)C(=O)N1CC(F)(F)F (centres unmarked)	item: total radioactivity	human, plasma	oral, dose not given, single dose, 14C-labelled, LLOQ 73 dpm/mL	–	last time with quantifiable radioactivity	≤ 48 h
CC(C)c1cnc(-c2cc(Cl)ccc2F)cc1Nc1ccncc1C(=O)NC(CO)CO	–	patients, phase I monotherapy	oral, dose not given, grade 2	–	patients with AST increase	9.5%
O=C([O-])CN(CCN(CC(=O)[O-])Cc1cc(CCC(=O)NCCCCCC(=O)NCCCC[C@H](NC(=O)N[C@@H](CCC(=O)O)C(=O)O)C(=O)O)ccc1O)Cc1cc(CCC(=O)O)ccc1[O-].[68Ga+3]	PET/CT	human, normal liver	–	–	SUVmean	~4.5
CN(C)c1ccc2c(-c3cc(C(=O)N4CCN(CCCOc5ccc6nccc(C(=O)NCC(=O)N7CC(F)(F)C[C@H]7C#N)c6c5)CC4)ccc3C(=O)[O-])c3ccc(=[N+](C)C)cc-3oc2c1	intravital imaging	mouse B16-F10-GFP tumour, tumour	intravenous, 1 µM, 100 µL	–	signal clearance onset time	2 h
CC(C)[C@H](NC(=O)[C@@H]1CCCN1C(=O)[C@H](CCCNC(=N)N)NC(=O)[C@H](CS)NC(=O)[C@H](Cc1c[nH]c2ccccc12)NC(=O)[C@H](CCCNC(=N)N)NC(=O)[C@@H](Cc1ccccc1)NC(=O)[C@H](Cc1c[nH]cn1)NC(=O)[C@H](CCC(=O)O)NC(=O)[C@H](CS)NC(=O)[C@H](CS)NC(=O)[C@@H]1CC(=O)N[C@@H](CCCNC(=N)N)C(=O)NCC(=O)N[C@@H](CC(=O)O)C(=O)N[C@H](Cc2ccc(O)cc2)C(=O)N1)C(N)=O [technetium-99m labelled]	–	C57 mouse, female, B16/F1 melanoma	intravenous, 0.037 MBq, 24 h	relative to: tumour over lung	tumour to tissue ratio	23.9
CCC(=O)N(C)c1ccc(Cl)c(Cl)c1	–	mouse liver S9 CD1 male cofactor-fortified	10 µM, 1 h, pH 7.4	relative to: boiled S9	turnover	14.3%
Cn1cc(C(N)=O)c(NC2C3CC4CC2CC(OS(=O)(=O)O)(C4)C3)c2ccnc1-2 (centres unmarked)	–	Japanese adults, normal hepatic function, plasma	oral, 150 mg single dose	–	AUC(0-t)	412 ng·h/mL
COC(=O)/C=C/C(=O)c1ccc(OC)cc1	LC-MS/MS	rat plasma	40 ng/mL, 15 days, -70 °C, long-term storage	–	recovery	97.3 ± 4.02%
O=C([O-])CN1CCN(CC(=O)[O-])CCN(CC(=O)NC[C@H]2CC[C@H](C(=O)N[C@H](Cc3cnc4ccccc4c3)C(=O)NCCCC[C@H](NC(=O)N[C@@H](CCC(=O)O)C(=O)O)C(=O)O)CC2)CCN(CC(=O)[O-])CC1.[64Cu+2]	PET/CT dosimetry OLINDA/EXM	healthy volunteers, brain	up to 24 h post-injection	–	absorbed dose	0.00268 mGy/MBq
CC(C)(Sc1cc[n+]([O-])cc1-c1ccc(C#N)c2ccccc12)C(=O)OC1OC(C(=O)O)C(O)C(O)C1O (centres unmarked)	–	urine	oral, 15 mg, moderate renal impairment	relative to: normal renal function	renal clearance decrease	61%

Structure (SMILES)	assay	system	setting	how to read	quantity	value
CN(C)c1ccc(-c2nc3ccc(OCCCCCN4CCN5CCN(CC4)CC(=O)[O][Al]([18F])[O]C(=O)C5)cc3s2)cc1	–	ICR mouse	intravenous, dose not given, 10 min	–	intestine uptake	8.59 ± 2 % injected dose/organ
C=C(c1ccc(C(=O)O)c(F)c1)c1cc2c(cc1C)C(C)(C)C=CC2(C)C	–	Sprague-Dawley rat, male	oral, 100 mg/kg, 3 h, sesame oil vehicle	–	blood triglycerides	113 ± 7.8 mg/dL
Oc1ccc2ccccc2c1/N=N/c1ccc(/N=N/c2ccccc2)cc1	–	rat whole blood	16.0 µg/L, 30 days, -20 °C, long-term storage	–	measured concentration	16.1 µg/L
CCCC[C@H](NC(=O)CNC(=O)CNC(=O)CN1CCN(CC(=O)O)CCN(CC(=O)O)CC1)C(=O)N[C@H]1CC(=O)NCCCC[C@@H](C(N)=O)NC(=O)[C@H](Cc2c[nH]c3ccccc23)NC(=O)[C@H](CCCNC(=N)N)NC(=O)[C@@H](Cc2ccccc2)NC(=O)[C@H](Cc2c[nH]cn2)NC1=O [gallium-67 labelled]	–	C57 mice, female, B16/F1 melanoma, urine	intravenous, 0.037 MBq, 4 h	–	urinary excretion	86.4 ± 3.94%
O=C(CCCCC[N+]#[C][99Tc-5]([C]#[N+]CCCCCC(=O)N[C@H]1C(O)O[C@H](CO)[C@@H](O)[C@@H]1O)([C]#[N+]CCCCCC(=O)N[C@H]1C(O)O[C@H](CO)[C@@H](O)[C@@H]1O)([C]#[N+]CCCCCC(=O)N[C@H]1C(O)O[C@H](CO)[C@@H](O)[C@@H]1O)([C]#[N+]CCCCCC(=O)N[C@H]1C(O)O[C@H](CO)[C@@H](O)[C@@H]1O)[C]#[N+]CCCCCC(=O)N[C@H]1C(O)O[C@H](CO)[C@@H](O)[C@@H]1O)N[C@H]1C(O)O[C@H](CO)[C@@H](O)[C@@H]1O (some centres unmarked)	SPECT	BALB/c nude mouse TE-1 xenograft	–	relative to: kidney over tumour	kidney/tumour ratio	2.01
CC(=O)N[C@H](CC(=O)O)C(=O)N[C@H](Cc1c[nH]c2ccccc12)C(=O)N[C@H](Cc1ccccc1)C(=O)N[C@H](CCCCN)C(=O)N[C@H](C)C(=O)N[C@H](Cc1ccccc1)C(=O)N[C@H](Cc1ccc(O)cc1)C(=O)N[C@H](CC(=O)O)C(=O)N[C@H](CCCCN)C(=O)N[C@@H](C(=O)N[C@H](C)C(=O)N[C@H](CCC(=O)O)C(=O)N[C@H](CCCCN)C(=O)N[C@H](Cc1ccccc1)C(=O)N[C@H](CCCCN)C(=O)N[C@H](CCC(=O)O)C(=O)N[C@H](C)C(=O)N[C@H](Cc1ccccc1)C(N)=O)C(C)C	–	statin-treated high-risk CHD women, plasma	oral, 500 mg daily, day 13, 0 to 8 h, mean, outlier excluded	–	Cmax	49.1 ng/mL
COCCOCCOCCOCCC(=O)NCc1cc(CNC(=O)CCOCCOCCOCCOC)cc(-c2cc3cc4nc(c(-c5ccc(CCC(=O)O)cc5)c5[nH]c(cc6nc(c(OC)c2[nH]3)CC6(C)C)cc5-c2cc(CNC(=O)CCOCCOCCOCCOC)cc(CNC(=O)CCOCCOCCOCCOC)c2)CC4(C)C)c1	–	water with 5% DMF	room temperature	–	Qy/B absorption intensity ratio	0.69
CSCCN(CCSC)CCc1ccccn1	potentiometric or spectrophotometric titration	water, 0.1 M KCl	25 °C	–	logK(H1)	7.24
N=C(N)NCCC[C@@H]1NC(=O)[C@H](Cc2c[nH]c3ccccc23)NC(=O)[C@@H](CC2CCCCC2)NC(=O)[C@@H]2CCCN2C(=O)[C@@H](NC(=O)CCc2ccccc2)CCCNC1=O	–	C57BL/6J mice, spinal cord	oral, 1 mg/kg, two-compartment model	–	apparent distributional clearance	< 0.001 ng/(min·ng/g)
Cc1nc(C)c(C=[N+]([O-])C(C)(C)C)nc1C	–	healthy human, both sexes, serum	oral, 1200 mg twice daily, 7 days	–	Cavg	6780 ng/mL
CC/C=C\C/C=C\C/C=C\C/C=C\C/C=C\CCCCOC(CC)C(=O)O (centres unmarked)	14C radiolabel	Wistar rats male, muscle	oral, 100 mg/kg, 2 h	–	tissue concentration	5.2 µg/g
COc1cc(C)c(Cc2ccc(O)cc2)cc1[C@@H]1S[C@H](CO)[C@@H](O)[C@H](O)[C@H]1O	–	Japanese T2DM patients, plasma	1 mg luseogliflozin, day 7, once daily	–	AUC(0-τ)	50.4 ± 7.62 ng·h/mL
Cc1ccc(-c2ccc(-c3cc4sccc4o3)cn2)nc1	–	acetonitrile	zinc(II) complex	–	fluorescence lifetime	3.71 ns
O=C(Nc1nccs1)C(c1cc(F)ccc1O)N1Cc2ccccc2C1=O (centres unmarked)	–	methanol stock solution	1.5 months, -30 °C	–	recovery	93.4%
COc1cc(-c2nc3ccc(C(=O)NCCCN4CCN(c5ccccn5)CC4)cc3n2C2CCC2)cc(OC)c1OC	–	–	–	–	dynamic solubility	75.4 µM
CCC1CC2C(C)=CC3C(=O)CCCC3C=CC(C)=CC2C(=O)O1 (centres unmarked)	–	ICR mouse (male), plasma	oral, 30 mg/kg, 60 min	–	plasma concentration	0.8 ± 0.8 ng/mL
COc1ccc2c(c1)c(CC(=O)Nc1nnc(CCCCc3ccc(NC(=O)Cc4cccc(OC(F)(F)F)c4)nn3)[se]1)cn2C	–	ICR mouse, whole blood, heparinized	0.091 mg/mL, 2 h, 37 °C	–	remaining compound	75 ± 1.1%
CCCCCCCCC=CCCCCCCCC(=O)OC(COC(=O)Cc1c(C)n(C(=O)c2ccc(Cl)cc2)c2ccc(OC)cc12)COP(=O)([O-])OCC[N+](C)(C)C (centres unmarked)	dialysis	ethanol/PBS	10 h, pH 7.4, 37 °C	–	cumulative release	91.8 ± 4.33%
COc1cc(NC(C)=O)c2c(c1O)-c1c(OC)c(OC)cc3c1C(C2)N(C)CC3 (centres unmarked)	–	male Wistar rat, plasma	oral, 200 mg/kg	–	Vd/F	9.6 L/kg
NS(=O)(=O)c1ccc(N2N=C(C(F)(F)F)C(O)C2c2ccc(F)cc2F)cc1 (centres unmarked)	substrate	human liver microsomes	20 µM, 0 to 30 min, pH 7.4	–	metabolite formation rate	189 pmol/min/mg

Some of these lines once more:
Structure (SMILES)	assay	system	setting	how to read	quantity	value
O=C(Nc1nccs1)C(c1cc(F)ccc1O)N1Cc2ccccc2C1=O (centres unmarked)	–	methanol stock solution	1.5 months, -30 °C	–	recovery	93.4%
CSCCN(CCSC)CCc1ccccn1	potentiometric or spectrophotometric titration	water, 0.1 M KCl	25 °C	–	logK(H1)	7.24
[11CH3]c1ccc2nc(C3CCC3)n(-c3ccc4[nH]ncc4c3)c2n1	–	human male, thyroid	–	–	absorbed radiation dose	2.1 µSv/MBq
